Results collected from several papers.
Each numbered part is a random draw from the data of one study; scales do not carry over between parts.

Study 1
Target: Prothrombin, mature alpha-thrombin (F2, Homo sapiens, UniProt P00734)
Technique: aptamer microarray, sandwich
Molecule type: DNA with 2'F-ANA
Medium: in vitro
Tested at: 200 nM
Setting: whole 15-mer aptamer, many near background
With: Cy3 exosite-II aptamer, 400 nM
Reading: higher = stronger binding
Oligonucleotide: GGTTGGTGTGGTTGG
| Modification | mean fluorescence intensity [a.u.] |
| --- | --- |
| 2'F-ANA at 2 4 6 8 13 | 203 |
| 2'F-ANA at 1 3 6 7 8 9 10 12 13 14 | 81.8 |
| 2'F-ANA at 1 2 3 7 8 9 15 | 270 |
| 2'F-ANA at 2 3 5 6 7 8 12 13 15 | 165 |
| 2'F-ANA at 2 3 5 10 12 15 | 59.3 |

Study 2
Target: Transcription factor SOX-2, HMG box (Sox2, Mus musculus, UniProt P48432, residues 41-119)
Sequence of UniProt P48432 (41-119, looked up): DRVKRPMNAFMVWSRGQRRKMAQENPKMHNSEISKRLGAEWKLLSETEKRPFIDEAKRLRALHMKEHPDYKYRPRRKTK
Technique: Spec-seq
Molecule type: double-stranded DNA, one strand shown
Medium: in vitro
Tested at: not given
Setting: whole probe, mean of replicates
Relative to: not given
Reading: lower = stronger binding
Shared flanks, not repeated: GAGTCGTCTCGTCAGCAC … CCGTAGAGCACTCAGGTC
| Oligonucleotide | relative binding energy [ln ratio] |
| --- | --- |
| TGATGTT | 0.335 |
| GAGAGTT | 1.09 |
| TAAAGTT | 0.0519 |
| CGAGGTT | 1.33 |
| CATTATC | -1.71 |
| CTGGGTT | 1.48 |

Study 3
Target: Sal-like protein 4, full length isoform B (SALL4, Homo sapiens, UniProt Q9UJQ4-2, residues 1-616)
Technique: universal PBM
Molecule type: double-stranded DNA, one strand shown
Medium: in vitro
Tested at: not given
Setting: 8-mer, flanks averaged, mean of replicates
Reading: higher = stronger binding
Target sequence (chain): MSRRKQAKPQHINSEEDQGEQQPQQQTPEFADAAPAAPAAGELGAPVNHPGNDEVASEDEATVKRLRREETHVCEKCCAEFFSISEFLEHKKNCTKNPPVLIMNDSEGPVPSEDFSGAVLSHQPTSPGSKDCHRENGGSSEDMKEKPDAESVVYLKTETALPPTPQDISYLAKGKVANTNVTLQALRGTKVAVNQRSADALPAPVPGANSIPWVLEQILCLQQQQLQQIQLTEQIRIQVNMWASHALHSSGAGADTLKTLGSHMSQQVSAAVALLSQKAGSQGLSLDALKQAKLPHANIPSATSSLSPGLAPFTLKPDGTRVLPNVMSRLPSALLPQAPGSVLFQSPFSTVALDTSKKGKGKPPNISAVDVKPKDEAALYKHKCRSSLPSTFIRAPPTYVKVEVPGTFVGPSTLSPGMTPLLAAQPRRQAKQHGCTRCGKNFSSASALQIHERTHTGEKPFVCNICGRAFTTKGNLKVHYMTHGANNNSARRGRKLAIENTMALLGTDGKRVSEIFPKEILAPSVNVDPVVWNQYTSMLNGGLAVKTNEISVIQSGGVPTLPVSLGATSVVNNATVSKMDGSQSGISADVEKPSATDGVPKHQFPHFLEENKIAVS
| Oligonucleotide | E-score |
| --- | --- |
| CCACAACG | -0.109 |
| GGGGGACA | -0.302 |
| AAGCTCCG | -0.223 |
| GATCTACA | 0.146 |
| ATCCCAAG | -0.115 |

Other studies, line by line
| Substance | target | assay | test system | setting | scale | measurement | result |
| --- | --- | --- | --- | --- | --- | --- | --- |
| PhoQ, residues 284 288 289 292 302 303 AANNSF | PhoP, residues 12 14 15 18 19 LYFRQ (Escherichia coli, UniProt P23836) | Sort-seq, refers to: YFP reporter | E. coli | PhoQ-PhoP variant library, with: 10 µM Mg2+ | relative to: high Mg2+ state, higher = stronger signaling | fold induction | 18.4 |
